Published values gathered from unrelated publications.
Lines come from different studies, so protocols differ. “And” joins repeats or separate records; there may be more than shown.
Target: Tyrosine-protein kinase receptor TYRO3 (TYRO3, Homo sapiens, UniProt Q06418)
One construct used (Q06418 41-890): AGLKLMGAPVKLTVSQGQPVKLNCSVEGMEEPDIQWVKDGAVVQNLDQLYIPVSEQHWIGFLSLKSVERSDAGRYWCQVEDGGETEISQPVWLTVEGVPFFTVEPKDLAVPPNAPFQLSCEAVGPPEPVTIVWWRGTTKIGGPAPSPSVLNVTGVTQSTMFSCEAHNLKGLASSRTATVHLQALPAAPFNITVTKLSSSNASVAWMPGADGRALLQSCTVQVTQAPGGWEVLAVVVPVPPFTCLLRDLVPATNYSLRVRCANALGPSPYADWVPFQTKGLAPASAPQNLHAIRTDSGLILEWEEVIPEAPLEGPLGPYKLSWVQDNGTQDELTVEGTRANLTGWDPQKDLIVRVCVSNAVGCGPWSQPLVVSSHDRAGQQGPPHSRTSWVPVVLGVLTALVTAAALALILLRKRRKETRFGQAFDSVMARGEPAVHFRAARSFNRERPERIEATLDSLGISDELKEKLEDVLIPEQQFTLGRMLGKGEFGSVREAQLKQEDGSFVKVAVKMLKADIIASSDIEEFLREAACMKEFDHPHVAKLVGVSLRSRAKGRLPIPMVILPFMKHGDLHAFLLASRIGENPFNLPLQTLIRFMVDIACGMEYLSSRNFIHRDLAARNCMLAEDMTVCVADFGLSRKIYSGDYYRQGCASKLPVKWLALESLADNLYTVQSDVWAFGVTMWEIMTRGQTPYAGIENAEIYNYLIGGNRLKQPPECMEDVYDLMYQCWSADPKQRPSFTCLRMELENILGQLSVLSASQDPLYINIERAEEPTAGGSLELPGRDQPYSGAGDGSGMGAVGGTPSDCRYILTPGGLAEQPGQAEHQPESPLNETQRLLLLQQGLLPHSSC

`Cc1cnc2nc1Nc1cccc(c1)COC/C=C/COCc1cc(ccc1OCCN1CCOCC1)N2` gave a remaining binding of 68% (binding, competition with immobilised ligand; 0.1 µM).
`C=CC(=O)Nc1cccc(-c2cnc3[nH]cc(C(=O)NC(C)(C)C)c3n2)c1` gave an inhibition of 10% and 7% (kinase activity; 0.1 µM).
For `CNC(=O)C1CCN(c2cc(C)c(F)cc2NC(=O)c2ccc(-c3cc(O)ccc3C)c(C)c2)CC1`, the remaining binding was 16% (binding, competition with immobilised ligand; 1 µM).
The inhibition of `C[C@H]1CN(C(=O)c2cn(-c3ccnc(N)n3)c3cc(C#CC4(O)CCCCC4)ccc23)CCN1` is reported as -2% (enzyme activity, inhibitor, FRET; 1 µM).
For `Cc1cccc(O[C@H]2CCC[C@@H](C(C)CNCc3ccncc3)C2)c1` (relative stereo), the inhibition was -3% (cell-free assay; 1 µM).
For `O=C=[N][Ru-4]123([n]4c5ccc(O)cc5c5c6c(c7cc(F)c[n+]1c7c54)C(=O)NC6=O)[S+]1CC[S+]2CC[S+]3CC1` (stereo not shown), the remaining activity was 61% (enzyme activity; 100 nM, human enzyme, together with: 10 µM ATP; reference: untreated).
`CN1CC[C@@H](COc2cnc(C#N)cc2-c2ccn3nc(NC(=O)C4CC4)cc3c2)C1` gave an inhibition of 14% (enzyme activity, inhibitor; 1 µM).
With `CC(C)=CC1OC(C)(C)C2C=C3C(=O)C(Cl)=CC(O)C3C3C(O)C4OC4C(=O)C132` (stereo not shown) the remaining binding was 86% (cell-free assay, competition with immobilised ligand; 10 µM).
`C=CC(=O)N1CCc2ccc(-n3c(=O)ccc4cnc5ccc(-c6cnn(C)c6)cc5c43)cc21` has a remaining binding of 96% (KINOMEscan; 1 µM; reference: DMSO control).
The inhibition of `CCn1cc(C(=O)O)c(=O)c2c(N)c(F)c(NC3CCCCC3)cc21` is reported as -6.8% (kinase activity; 0.1 µM, together with: ATP at Km).
`O=C(O)CCC(=O)c1cccc(NS(=O)(=O)c2c[nH]c3ncccc23)c1` gave a remaining activity of 118% (kinase activity, radiometric; 10 µM).
The remaining binding of `Nc1ncc2c(n1)-c1c([nH]c3ccc(C4=CCOCC4)cc13)CCC2` is reported as 100% (binding, competition with immobilised ligand; 1 µM).
`COCC12C(=O)NC3C4(C(OC)CC1O)C1CC5(O)C(OC)C(O)C(OC(C)=O)(C1C5OC(=O)c1ccccc1)C3(O)C(OC)C24` (stereo not shown) has a remaining activity of 110% and 112% (kinase activity, inhibitor, ProQinase kinase profiling; 25 µM; reference: control).
With `COc1cc(Nc2nc(C)cc(-c3cnn4nc(OC)ccc34)n2)cc(C(F)(F)F)c1` the remaining binding was 76% (binding, competition with immobilised ligand; 1 µM).
For `COc1c(OCCCN2CCOCC2)ccc2c1N=C(NC(=O)c1cnc(N)nc1)N1CCN=C21`, the remaining activity was 91% (kinase activity, inhibitor; 1 µM; reference: untreated control).
With `NC(=O)C[C@H]1CCc2sc3ncnc(O[C@H]4CC[C@H](N5CCOCC5)CC4)c3c21` the inhibition was 3% (enzyme activity, inhibitor; 10 µM).

Excerpt of the above:
`C=CC(=O)Nc1cccc(-c2cnc3[nH]cc(C(=O)NC(C)(C)C)c3n2)c1` gave an inhibition of 10% and 7% (kinase activity; 0.1 µM).
`COCC12C(=O)NC3C4(C(OC)CC1O)C1CC5(O)C(OC)C(O)C(OC(C)=O)(C1C5OC(=O)c1ccccc1)C3(O)C(OC)C24` (stereo not shown) has a remaining activity of 110% and 112% (kinase activity, inhibitor, ProQinase kinase profiling; 25 µM; reference: control).
